Assay results collected from several papers.
Compare with care: the assays were run in different laboratories. Numbers after ± are the reported error.
Organism: Trypanosoma cruzi

SMILES	assay	test system	conditions	IC50
C=C1C(=O)O[C@@H]2C[C@H](C)[C@@H]3C[C@H](OC(C)=O)[C@H](OC(C)=O)[C@@]3(C)C[C@H]12	parasite growth, thymidine uptake		epimastigote	9.12 µM
NC(COc1ccccc1)COc1ccccc1	parasite growth	L929, TULAHUEN	intracellular, amastigote	100 µM
C=C1C(=O)O[C@@H]2C[C@H](C)[C@@H]3C[C@H](O[Si](C)(C)C(C)C)[C@H](O[Si](C)(C)C(C)C)[C@@]3(C)C[C@H]12	parasite growth, thymidine uptake		epimastigote	> 107 µM
COc1cc(/C=C/C(=O)N2CCN(c3ccccc3)CC2)ccc1O	parasite growth	mouse Peritoneal macrophage	48 h, intracellular, amastigote	> 60 µM
COc1ccc(Nc2c(C#N)cnc3ccc(Cl)cc23)cc1	growth	cardiomyocytes, Y, amastigote	72 h, added: heme 30 µM	6.3 ± 2.5 µM
N#C/C=C/C(=O)Oc1cccc(F)c1	parasite growth, resazurin		72 h, epimastigote	5.06 µM
NC(COc1cccc(Cl)c1)COc1cccc(Cl)c1	parasite growth	L929, TULAHUEN	intracellular, amastigote	13 µM
C=C1C(=O)O[C@@H]2C[C@H](C)[C@@H]3C[C@H](O)[C@H](O)[C@@]3(C)C[C@H]12	parasite growth, thymidine uptake		epimastigote	11.2 µM
COc1cc(O)c(-c2cc(-c3c(C)cc(O)c4c(OC)ccc(-c5c(O)cc(OC)c6c5C[C@@H](C)N(C)[C@@H]6C)c34)c(O)c3c(OC)cc(C)cc23)c2c1[C@@H](C)N(C)[C@H](C)C2		Tulahuen C4, amastigotes		15.1 µM
C=C1C(=O)O[C@@H]2C[C@H](C)[C@@H]3C[C@H](OCc4cn(Cc5ccccc5)nn4)[C@H](OCc4cn(Cc5ccccc5)nn4)[C@@]3(C)C[C@H]12	parasite growth, thymidine uptake		epimastigote	21.4 µM
CC(C)C[C@@H]1NC(=S)NC1=O	parasite growth		24 h, trypomastigote	115 µg/mL
C=C1C(=O)O[C@@H]2C[C@H](C)[C@@H]3C[C@H](O[Si](c4ccccc4)(c4ccccc4)C(C)(C)C)[C@H](O)[C@@]3(C)C[C@H]12	parasite growth, thymidine uptake		epimastigote	46.8 µM
N#C/C=C/C(=O)Oc1ccc(Br)cc1	parasite growth, resazurin	mouse Macrophage	24 h, intracellular, amastigote	14.9 µM
Cc1nc(C(=O)N2CCC[C@@H]2C(=O)N[C@H](CCC2CCCCC2)C(=O)N[C@H](CC(C)C)C(=O)NC(C)(C)C(=O)N[C@H](CC(C)C)C(=O)N[C@H](CC(C)C)C(=O)NC(C)(C)C(=O)NC(C)(C)C(=O)NCCC(=O)NC2(CN(C)C)CCC2)co1	beta-galactosidase	L6, Tulahuen C2C4		0.311 µM
CC(=O)OC(CF)Cn1c([N+](=O)[O-])cnc1C (centres unmarked)	parasite growth		24 h, trypomastigote	1750 µM
COc1cc(O)c(-c2ccc(OC)c3c(OC)cc(C)cc23)c2c1[C@H](C)N(C)[C@H](C)C2		Tulahuen C4, amastigotes		92.9 µM
O=C([C@@H](c1ccc(Cl)cc1)c1cccnc1)N1CCN(c2ccc(C(F)(F)F)cc2)CC1	parasite growth, resazurin		48 h, epimastigote	4.53 µM
NNc1n[nH]c(=O)c2ccccc12	parasite growth		5 days, epimastigote	> 25 µM
CC(=O)OC(CCl)Cn1cncc1[N+](=O)[O-] (centres unmarked)	parasite growth		24 h, trypomastigote	> 2000 µM
FC(F)(F)c1ccc(N(c2cccnc2)C2CCN(c3ccc(C(F)(F)F)cn3)CC2)cc1	parasite growth, resazurin		48 h, epimastigote	5.26 µM
Cc1ccccc1OCC(N)COc1ccccc1C	parasite growth	L929, TULAHUEN	intracellular, amastigote	10 µM
Cc1nc([N+](=O)[O-])cn1CC(O)CCl (centres unmarked)	parasite growth		24 h, trypomastigote	1690 µM
NC(COc1ccccc1Cl)COc1ccccc1Cl	parasite growth	L929, TULAHUEN	intracellular, amastigote	12 µM
COc1ccc(OC(=O)/C=C/C#N)cc1	parasite growth, resazurin		72 h, epimastigote	10.2 µM
N#Cc1cccc(OCC(N)COc2cccc(C#N)c2)c1	parasite growth	L929, TULAHUEN	intracellular, amastigote	6 µM
CC(C)(C)c1ccc(OC(=O)/C=C/C#N)cc1	parasite growth, resazurin		72 h, epimastigote	12.3 µM

Repeated from above:
SMILES	assay	test system	conditions	IC50
Cc1nc([N+](=O)[O-])cn1CC(O)CCl (centres unmarked)	parasite growth		24 h, trypomastigote	1690 µM
NC(COc1ccccc1Cl)COc1ccccc1Cl	parasite growth	L929, TULAHUEN	intracellular, amastigote	12 µM
